Measurements pooled from the literature.
Every numbered part comes from another study and shows a few of its results, in no order.

Block 1 — method: protein binding microarray; molecule type: double-stranded DNA, one strand shown; medium: in vitro; concentration: not given; relative to: not given; direction: higher = stronger binding
Target: Histone acetyltransferase KAT6A, both winged helices, GST fusion (KAT6A, Homo sapiens, UniProt Q92794, residues 1-181)
Setting: 8-mer, flanks averaged, mean of 2 arrays, mostly near background
Residues (chain): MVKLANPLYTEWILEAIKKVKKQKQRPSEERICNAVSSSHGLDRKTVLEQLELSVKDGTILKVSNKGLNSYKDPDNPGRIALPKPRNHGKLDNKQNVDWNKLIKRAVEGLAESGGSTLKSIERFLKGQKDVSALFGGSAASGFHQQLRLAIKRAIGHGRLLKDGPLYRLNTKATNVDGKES
Strand | E-score
CATGCTTC | 0.00747
AGCGCCGG | 0.328
ACCATGAG | -0.0616
CCACTAAA | -0.172
TCTGTAAA | 0.0909
TAAGAGAA | -0.122
TAAATTCA | -0.152
AGCCCGGG | 0.203
ATAGACGG | 0.0924
AATAGAAA | 0.0232
ACCCACCA | -0.246
GAAACAGC | -0.0287
AACAGCCC | -0.107
GGGTGTCA | -0.0563
ATTTAAGC | -0.0105
ACGTCGCG | 0.265
GTCACTGA | -0.0492
CTGTATCC | -0.0437
ACTCATCC | -0.0822
CGTGCTCA | 0.0396

Block 2 — method: RNA Bind-n-Seq; molecule type: RNA; medium: in vitro; concentration: not given; relative to: input RNA pool; direction: higher = stronger binding
Target: RING finger protein unkempt homolog, zinc fingers 1-6, GST-SBP tag (UNK, Homo sapiens, UniProt Q9C0B0, residues 30-357)
UniProt Q9C0B0, sequence (30-357, looked up): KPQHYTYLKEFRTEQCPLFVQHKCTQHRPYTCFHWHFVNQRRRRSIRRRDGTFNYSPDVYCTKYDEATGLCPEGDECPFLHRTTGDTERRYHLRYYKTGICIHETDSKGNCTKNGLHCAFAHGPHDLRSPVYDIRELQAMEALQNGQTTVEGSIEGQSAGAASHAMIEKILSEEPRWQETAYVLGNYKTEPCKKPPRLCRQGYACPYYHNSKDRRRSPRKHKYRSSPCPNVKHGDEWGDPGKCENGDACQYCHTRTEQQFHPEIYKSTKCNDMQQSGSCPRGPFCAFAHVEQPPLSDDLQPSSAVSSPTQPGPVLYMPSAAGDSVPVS
Setting: RNA with constant flanks, human and mouse sites, ends assumed
Shared flanks, not repeated: GGGAGUUCUACAGUCCGACGAUC … CAACAGAGGAUUGAGCAUCA
Strand | bound/input enrichment [ratio]
UCUGGUUCACUUCUAUUAUGAAUAAAUUUGCACCAAUAGCCCCAUUAGUUUUUAAAGAAAUGAGCUGGGUGGGAAAAGUGGAAAUGUAAUUUCUGGUAAGCUUGAGCUACUUUAAUUUUU | 2.18
AUUCCCUUAGUUGCUCAGGAAUUAAUGAAAAAAAUGAUACGUCAGUUUGCAAUUGAGUACAUCUCAAAAAGCGGUAAAAUUCAAGAAAAUAGAAAUGGUUCAAUUGGAGCAAGUCUCGUG | 0.452
ACUGAUUACAAAUCACCAUCAGCUGAUGACAAAGGGCAGCCAUCUGACCCCAGCCAAUCUAGUUUCACAGGUCUUUUGAAGAGAAUGGAACAAAGAGGUGUUAUAAAAAGGGUGACAUUA | 0.167
UCCCAAAUCCAGCAGCUAGAAGGAGCCUUGAGACAAACACUCCACACACAGGGAAGGCGAUAACAUUGUACAUUGGUUUACAUUUUUUCCCCCUGUGGAUUUUUCUAGAGGUCAUAGUGC | 0.428
GUAGCCCGGCGCUCGGCAUGGCUCUCCUGGUGCUCGGUCUGGUGAGCUGUACCUUCUUUCUGGCAGUGAAUGGUCUGUAUUCCUCUAGUGAUGAUGUGAUCGAAUUAACUCCAUCGAAUU | 0.215
GCUUCUAUACUAGCUACCUUCACUGUAACAGAAGGGAAGAAAAAAAUUCCUGUUGCUGGCUGCAGAGUUCAAAAGGGACAAUUAGAAAGACAUAAGAAGUUUAAAUUAAUCCGAAACGGC | 3.26
GAAAAAGUUUUGUCUCCUUUACGCAGCCCGCCCCUCAUUGGAUCCGAGUCUGCUUAUGAAAGUUUUCUAAGUGCUGAUGACAAGGCUUCUGGCAGAGGUGCCGAAAGUCCUUUUGAAGAA | 0.128
AGUCAUGAGCCAGAGUUUGACUAUUUGAAAAGUCUAGAAAUUGAAGAAAAAAUUAAUAAAAUCAGGUGGUUACCGCAACAGAAUGCUGCUCAUUUUCUACUCUCUACAAAUGAUAAAACU | 1.2
UACUCUGACAAGCACAACUGUCCGUAUGAUUACAAAGCAGAAGCUGCAGCAAAAAUCAGAAAAGAGAAUCCAGUUGUUGUGGCUGAAAAAAUUCAGAGAAUAUAAAUUACUUCUUGUGAA | 0.14
UGGUAUGGCCUUGGGCAGACUUACGAAAUCCUUAAAAUGCCAUUUUAUUGCCUUUAUUAUUAUAGACGGGCCCACCAGCUUCGUCCCAAUGAUUCUCGCAUGCUGGUUGCCUUAGGAGAA | 1.05
AGUCUGGCCGUACCACUGUGGCUGCUGGCAGCAUCUCUGCUCUGCCUUCUCAGCAAAUGUUAAUAGAAUAAAAAUUUAAAAAUAAUUUAAAAAACACACAAAAAUGCGUCACACAGAAUA | 6.03

Block 3 — method: RNA Bind-n-Seq; molecule type: RNA; medium: in vitro; concentration: 200 nM; setting: whole 134-nt RNA, ends assumed; together with: 150 mM KCl; relative to: input library; direction: higher = stronger binding
Target: Ras GTPase-activating protein-binding protein 1, full length (G3BP1, Homo sapiens, UniProt Q13283)
UniProt Q13283, sequence (whole entry, looked up): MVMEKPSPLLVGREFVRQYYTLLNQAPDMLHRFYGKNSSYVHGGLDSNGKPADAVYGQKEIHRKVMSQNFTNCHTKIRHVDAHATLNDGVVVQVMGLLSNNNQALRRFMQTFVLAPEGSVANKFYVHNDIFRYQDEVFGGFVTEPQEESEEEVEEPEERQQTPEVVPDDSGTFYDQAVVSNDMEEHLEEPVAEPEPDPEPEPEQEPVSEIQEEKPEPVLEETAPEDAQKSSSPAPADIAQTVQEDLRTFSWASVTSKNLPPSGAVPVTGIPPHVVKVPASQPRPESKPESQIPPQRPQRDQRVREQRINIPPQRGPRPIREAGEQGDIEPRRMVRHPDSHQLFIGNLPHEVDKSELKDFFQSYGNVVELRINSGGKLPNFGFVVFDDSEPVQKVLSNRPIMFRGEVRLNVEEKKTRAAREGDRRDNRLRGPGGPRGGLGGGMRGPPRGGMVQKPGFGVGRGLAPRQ
Shared flanks, not repeated: GGGAGUUCUACAGUCCGACGAUC … UGGAAUUCUCGGGUGUCAAGG
Strand | log2 enrichment
AGUGACCAUUUUAGUUAAAUUUUGUUCCUCUUCCCCCUUUUCACUUUCCUGGAAGAUCGAUGUCCCGAUCAGGAAGGUAGAGAGUUUUCC | -0.168
UCCUGUGCUACACAUCGUAUGUACCGAAUCGGGUUUUUGGGAAAAAGGGUUUUUUUGGGAAAGUAUUAUGUUACGCCGUUCGGAUCUGCA | -0.375
CUCAAGUCCUGUGCUACACAUCGUAUGUACCGAAUCGGGAAGGGGAAGGGAAGGAAAGUAUUAUGUUACGCCGUUCGGAUCUGCACUUCC | -0.153
CACAGACAACACGCACCCACACAAAAACAGAGGGAAGGGGUUGGGAUGGGGACAGGGUGCACAGCAGGGCGGGGUAGGACCCCAGCCCCU | 1.77
UCCUGUGCUACACAUCGUAUGUACCGAAUCGGGCCCCCCGGGCCCCCCGGCCCCCCGGGGAAAGUAUUAUGUUACGCCGUUCGGAUCUGC | -0.228
UAACUUUAGAGGAGGAUCUGAUGGAUAUGGCAGUGUACGUGGAUUUGGGGAUGGCUAUAAUGGGUAUGGAGGAGGACCUGGAGGUGGCAA | 0.322
AAGUCCUGUGCUACACAUCGUAUGUACCGAAUCGGGAGGGUUUGGGUUUUUUUGGGAAAGUAUUAUGUUACGCCGUUCGGAUCUGCACUU | -0.0581
UAACUUUAGAGGAGGAUCUGAUGGAUAUGGCAGUUGACGUGGAUUUGGGGAUGGCUAUAAUGGGUAUGGAGGAGGACCUGGAGGUGGCAA | 0.259
UCAAGUCCUGUGCUACACAUCGUAUGUACCGAAUCGGGAGGGUUUUUGGGUGGGAAAGUAUUAUGUUACGCCGUUCGGAUCUGCACUUCC | 0.43
UCAAGUCCUGUGCUACACAUCGUAUGUACCGAAUCGGUUUGGUUUUUGGAAAGGAAAGUAUUAUGUUACGCCGUUCGGAUCUGCACUUCC | -0.819
AGUCCUGUGCUACACAUCGUAUGUACCGAAUCGGGGUGGGGAGGGGUUUUUUUGGGGAAAGUAUUAUGUUACGCCGUUCGGAUCUGCACU | 0.669
AAGUCCUGUGCUACACAUCGUAUGUACCGAAUCGGGUUUUUGGUUUUUGGUUUUUGGAAAGUAUUAUGUUACGCCGUUCGGAUCUGCACU | -1.28
CUCAAGUCCUGUGCUACACAUCGUAUGUACCGAAUCGGUGGUGGUUUUUUUGGAAAGUAUUAUGUUACGCCGUUCGGAUCUGCACUUCCA | -0.352
GGCUGCUGGAGUGCCGUGAGCAGGCCGCGGGAACGUCGCCGUCACCUUGUCUCGGGGCCUCGGCGCUGCUUCCCGCCAAAACACGUUUAC | -1.24

Block 4 — method: protein-binding microarray; molecule type: double-stranded DNA, one strand shown; medium: in vitro; concentration: 940 nM top; setting: 60-bp whole probe; together with: salmon DNA 0.4 mg/ml; relative to: random background probes; direction: higher = stronger binding; shared flanks, not repeated: GCCTAGCAC … GTCTTGATTCGCTTGACGCTGCTG
Target: Interferon regulatory factor 5, full length, phosphomimetic (IRF5, Homo sapiens, UniProt Q13568-2, residues 1-514, S451D/S453D/S456D/S462D)
Strand | fitted relative affinity [z-score]
TTAGAACTGTGTCTCGATTAGTGCTAG | 1.08
TTAGATATCGGGTTTCGATTGGTGCTA | 5.45
TTAGAATTCAGTATCGATTAGTGCTAG | 6.38
TCACTCGTCTCTATCAAACTGTGCTAG | 1.44
TCAGCTCTGTGCTTTCCTACTGTGCTA | 0.0283
TAAGGACTGCTTCTCCTTTAGTGCTAG | 0.0133
TTAGGACTGGCGACTGGGTTAGTGCTA | -0.452
AAACCATTTTTTTTCACTATGTGCTAG | 1.55
AATATGTTCCCTATATAAGGGTGCTAG | 0.224
CTAATTCTCTTTTCACTTTCGTGCTAG | 2.64
TTAGACATCAGTCTCGATTAGTGCTAG | 2.61
TTAGGACTGGGTTTCGTTTAGTGCTAG | 3.67
GACGGTCTCCTTCTGCTGACGTGCTAG | 0.208
ATATGTGTATATATAATATAGTGCTAG | 0.0238
TTAGGACTGGAGTTTCGGTTAGTGCTA | 5.81
TTAGGACTGGGACTAGGTTAGTGCTAG | -0.388
TTAGGTATCCTTATCCTTTGGTGCTAG | 0.267
TTAGGTTTCGGGTATCTGTTAGTGCTA | 11.7
GACGAACTGGGTTTCGGGACGTGCTAG | 3.09
TTATGACTGGGTCTCGGTTAGTGCTAG | 1.15
GACGAACTGAGACTGTAGACGTGCTAG | -0.0942
TTAGATTCCAGGTTCGATTAGTGCTAG | 0.339
GTGATTTCAGTTTTCTTTTCGTGCTAG | 1.9
GTAGGACTGGGACTGGGTTAGTGCTAG | -0.427

A few entries again (block 3):
Strand | log2 enrichment
UCCUGUGCUACACAUCGUAUGUACCGAAUCGGGUUUUUGGGAAAAAGGGUUUUUUUGGGAAAGUAUUAUGUUACGCCGUUCGGAUCUGCA | -0.375
CUCAAGUCCUGUGCUACACAUCGUAUGUACCGAAUCGGGAAGGGGAAGGGAAGGAAAGUAUUAUGUUACGCCGUUCGGAUCUGCACUUCC | -0.153
CACAGACAACACGCACCCACACAAAAACAGAGGGAAGGGGUUGGGAUGGGGACAGGGUGCACAGCAGGGCGGGGUAGGACCCCAGCCCCU | 1.77
UCCUGUGCUACACAUCGUAUGUACCGAAUCGGGCCCCCCGGGCCCCCCGGCCCCCCGGGGAAAGUAUUAUGUUACGCCGUUCGGAUCUGC | -0.228
UAACUUUAGAGGAGGAUCUGAUGGAUAUGGCAGUGUACGUGGAUUUGGGGAUGGCUAUAAUGGGUAUGGAGGAGGACCUGGAGGUGGCAA | 0.322
AAGUCCUGUGCUACACAUCGUAUGUACCGAAUCGGGAGGGUUUGGGUUUUUUUGGGAAAGUAUUAUGUUACGCCGUUCGGAUCUGCACUU | -0.0581
UAACUUUAGAGGAGGAUCUGAUGGAUAUGGCAGUUGACGUGGAUUUGGGGAUGGCUAUAAUGGGUAUGGAGGAGGACCUGGAGGUGGCAA | 0.259
